Published values gathered from unrelated publications.
A part holds a random share of what one study measured. Changes are numbered by the printed parent chain.
Sequence of UniProt Q9H4B4 (whole entry, looked up): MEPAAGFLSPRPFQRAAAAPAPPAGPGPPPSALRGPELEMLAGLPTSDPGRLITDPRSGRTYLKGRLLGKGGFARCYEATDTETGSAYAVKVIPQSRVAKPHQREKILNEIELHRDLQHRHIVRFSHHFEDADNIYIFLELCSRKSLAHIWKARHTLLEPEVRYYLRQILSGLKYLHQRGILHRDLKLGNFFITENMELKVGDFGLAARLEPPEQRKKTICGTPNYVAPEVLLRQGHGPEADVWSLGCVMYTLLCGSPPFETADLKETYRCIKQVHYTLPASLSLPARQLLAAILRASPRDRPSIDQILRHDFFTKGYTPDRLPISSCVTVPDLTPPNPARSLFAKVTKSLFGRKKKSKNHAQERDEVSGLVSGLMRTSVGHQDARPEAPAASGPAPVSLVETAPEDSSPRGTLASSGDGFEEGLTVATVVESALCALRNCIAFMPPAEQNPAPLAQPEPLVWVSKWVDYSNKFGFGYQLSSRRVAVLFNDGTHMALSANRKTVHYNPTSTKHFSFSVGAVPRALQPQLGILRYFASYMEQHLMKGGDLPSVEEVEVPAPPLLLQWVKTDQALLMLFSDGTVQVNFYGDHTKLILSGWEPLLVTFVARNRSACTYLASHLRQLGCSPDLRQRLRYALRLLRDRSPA

Set 1 — observed: binding; technique: phage display NGS; form: peptide; concentration: concentration not given; setting: normalized abundance; reference: input library; endpoint: enrichment fold change
Target: UDP-N-acetylglucosamine--peptide N-acetylglucosaminyltransferase 110 kDa subunit (OGT, Homo sapiens, UniProt O15294)
Construct (O15294 1-1046): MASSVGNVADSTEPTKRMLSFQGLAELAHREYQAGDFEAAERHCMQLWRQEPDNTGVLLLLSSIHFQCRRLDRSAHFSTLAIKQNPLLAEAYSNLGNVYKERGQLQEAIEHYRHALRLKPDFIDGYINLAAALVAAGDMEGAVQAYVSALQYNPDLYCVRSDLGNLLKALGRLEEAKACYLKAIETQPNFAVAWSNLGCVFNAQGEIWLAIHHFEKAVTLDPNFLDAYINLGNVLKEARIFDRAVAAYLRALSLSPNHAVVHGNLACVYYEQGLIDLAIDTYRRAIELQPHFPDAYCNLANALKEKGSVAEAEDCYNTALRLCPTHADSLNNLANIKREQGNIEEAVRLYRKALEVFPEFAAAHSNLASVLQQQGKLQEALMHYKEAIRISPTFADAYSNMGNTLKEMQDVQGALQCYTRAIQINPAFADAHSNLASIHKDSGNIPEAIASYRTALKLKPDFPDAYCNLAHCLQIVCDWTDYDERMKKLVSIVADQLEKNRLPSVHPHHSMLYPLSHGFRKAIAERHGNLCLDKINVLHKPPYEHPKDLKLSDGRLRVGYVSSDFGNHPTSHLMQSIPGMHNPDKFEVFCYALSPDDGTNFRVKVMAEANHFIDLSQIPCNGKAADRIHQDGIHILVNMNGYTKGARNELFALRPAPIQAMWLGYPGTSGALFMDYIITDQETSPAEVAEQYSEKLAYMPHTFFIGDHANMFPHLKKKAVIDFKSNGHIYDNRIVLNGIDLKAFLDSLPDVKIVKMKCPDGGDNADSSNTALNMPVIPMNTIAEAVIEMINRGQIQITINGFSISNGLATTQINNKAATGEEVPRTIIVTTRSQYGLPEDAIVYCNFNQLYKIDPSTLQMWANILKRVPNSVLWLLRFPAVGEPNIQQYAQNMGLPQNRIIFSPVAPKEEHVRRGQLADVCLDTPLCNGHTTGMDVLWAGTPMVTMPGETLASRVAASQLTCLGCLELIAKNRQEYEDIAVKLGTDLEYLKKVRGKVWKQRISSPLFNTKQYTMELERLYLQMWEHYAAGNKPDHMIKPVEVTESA
TSATSYLPYYTIYPG: 9.09
QIQTMLHQHSVHHTH: 5.83
QYQHRSYMPFYQIAT: 68.9
DYKPKYQITAAEAG: 7.23
WQMHHDAYYWDHHLH: 75.2
FDHRDYHHYEQFHH: 8.85
YGEGYITRHTTYHQH: 4.66
VHRNSHHSEHHRDFE: 6.14

Set 2 — target: tungstate, free oxyanion; technique: microfluidic competitive inhibition; sample: in vitro, cell-free expressed; concentration: not given; reading: lower = stronger binding; endpoint: oxyanion analog dissociation constant
Setting: derived from inhibition constants, unchanged parent 2230 nM
Starting sequence: PafA, mature enzyme, eGFP fusion (Elizabethkingia meningoseptica, UniProt Q9KJX5); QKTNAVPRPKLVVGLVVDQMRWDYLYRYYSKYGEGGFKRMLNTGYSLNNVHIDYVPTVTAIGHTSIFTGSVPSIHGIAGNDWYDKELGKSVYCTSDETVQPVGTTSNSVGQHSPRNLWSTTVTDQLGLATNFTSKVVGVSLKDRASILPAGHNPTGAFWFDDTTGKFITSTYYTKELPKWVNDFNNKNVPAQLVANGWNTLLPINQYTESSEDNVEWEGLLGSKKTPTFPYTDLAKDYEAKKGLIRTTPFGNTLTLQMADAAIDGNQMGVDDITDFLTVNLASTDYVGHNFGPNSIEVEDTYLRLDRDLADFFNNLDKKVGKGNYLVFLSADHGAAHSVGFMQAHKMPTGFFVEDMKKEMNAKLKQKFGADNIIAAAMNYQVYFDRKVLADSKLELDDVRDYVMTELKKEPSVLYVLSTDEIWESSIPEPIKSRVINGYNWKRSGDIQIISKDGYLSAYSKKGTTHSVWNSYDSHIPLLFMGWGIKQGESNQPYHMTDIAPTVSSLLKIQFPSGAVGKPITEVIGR
K508V: 2.09 µM
Y402V: 2.18 µM
Q125V: 2.76 µM
D84G: 2.15 µM
V17A: 2.32 µM
A375G: 1.83 µM
L256G: 1.56 µM
K242V: 2.11 µM

Set 3 — target: CCNF, cyclin fold, Cln2 fusion (human); technique: yeast growth competition, sequencing; sample: yeast; setting: strong parent motif; reference: not given; reading: higher = stronger binding; endpoint: normalised enrichment score
Starting sequence: viral docking peptide; KGVKRKLFAEDSS; partner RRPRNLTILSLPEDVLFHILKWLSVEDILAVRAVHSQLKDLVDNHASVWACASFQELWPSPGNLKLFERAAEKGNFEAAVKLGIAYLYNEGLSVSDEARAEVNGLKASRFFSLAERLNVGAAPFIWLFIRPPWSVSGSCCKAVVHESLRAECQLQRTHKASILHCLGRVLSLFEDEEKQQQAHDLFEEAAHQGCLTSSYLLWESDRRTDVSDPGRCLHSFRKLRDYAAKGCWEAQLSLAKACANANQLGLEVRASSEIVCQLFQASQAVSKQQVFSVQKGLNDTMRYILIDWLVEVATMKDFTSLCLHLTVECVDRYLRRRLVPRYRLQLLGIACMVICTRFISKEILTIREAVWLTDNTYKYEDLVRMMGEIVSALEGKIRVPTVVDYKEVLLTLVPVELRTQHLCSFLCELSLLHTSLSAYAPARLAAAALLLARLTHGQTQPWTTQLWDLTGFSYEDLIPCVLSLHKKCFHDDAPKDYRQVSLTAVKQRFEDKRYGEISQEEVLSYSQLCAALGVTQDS
E10N: 7.86
R5H: 0.914
D11C: 7.87
F8R: 0.783
F8I: 1.34
K4D: 4
S12I: 8.27
K4Q: 8.42

Further values, each from its own experiment
CCn1cnc2c(Nc3cccc(Cl)c3)nc(N[C@H]3CCCC[C@H]3N)nc21  remaining activity (Serine/threonine-protein kinase PLK3 (PLK3, Homo sapiens, UniProt Q9H4B4); enzyme activity, inhibitor; 0.5 µM; reference: control): 90.1%

Some of these lines once more (set 1):
YGEGYITRHTTYHQH: 4.66
